# Assay results of several laboratories.
# Compare with care: the assays were run in different laboratories. Numbers after ± are the reported error.
# B1: UGT1A9 (Homo sapiens, UniProt O60656); chain GKLLVVPMDGSHWFTMRSVVEKLILRGHEVVVVMPEVSWQLGRSLNCTVKTYSTSYTLEDLDREFKAFAHAQWKAQVRSIYSLLMGSYNDIFDLFFSNCRSLFKDKKLVEYLKESSFDAVFLDPFDNCGLIVAKYFSLPSVVFARGILCHYLEEGAQCPAPLSYVPRILLGFSDAMTFKERVRNHIMHLEEHLLCHRFFKNALEIASEILQTPVTEYDLYSHTSIWLLRTDFVLDYPKPVMPNMIFIGGINCHQGKPLPMEFEAYINASGEHGIVVFSLGSMVSEIPEKKAMAIADALGKIPQTVLWRYTGTRPSNLANNTILVKWLPQNDLLGHPMTRAFITHAGSHGVYESICNGVPMVMMPLFGDQMDNAKRMETKGAGVTLNVLEMTSEDLENALKAVINDKSYKENIMRLSSLHKDRPVEPLDLAVFWVEFVMRHKGAPHLRPAAHDLTWYQYHSLDVIGFLLAVVLTVAFITFKCCAYGYRKCLGKKGRVKKAHKSKTH
Substance,tested on,assay,system,setting,how to read,quantity,result
CCc1ccc2oc(-c3ccc(O)c(O)c3)c(O)c(=O)c2c1,H4IIE,MTT,,"concentration not given, 24 h",reference: with over without cyclosporin A,difference in toxicity,29.7%
CN(C)c1cc(NC(=O)CNC(C)(C)C)c(O)c2c1C[C@H]1C[C@H]3[C@H](N(C)C)C(O)=C(C(N)=O)C(=O)[C@@]3(O)C(O)=C1C2=O,COS,"cytotoxicity, resazurin",,10% fetal calf serum,,TC50,> 100 µg/mL
CC(=O)Oc1ccc2cc(-c3ccc(S(C)(=O)=O)cc3)c(=O)oc2c1OC(C)=O,MRC9,"cell growth or viability, crystal violet",,48 h,,CC50,> 100 µM
CN(C)c1cc(CNCC(C)(C)C)c(O)c2c1C[C@H]1C[C@H]3[C@H](N(C)C)C(O)=C(C(N)=O)C(=O)[C@@]3(O)C(O)=C1C2=O,CHO,"cytotoxicity, resazurin",,10% fetal calf serum,,TC50,> 100 µg/mL
O=C1C(Cl)=C(N2C(=O)COCC2=O)C(=O)c2ccccc21,BALB/c 3T3 clone A31,"cytotoxicity, MTT",,48 h,,IC50,35.5 ± 1.76 µM
COc1ccccc1-c1ccnc2nc(Nc3ccc(S(N)(=O)=O)cc3)nn12,human peripheral blood lymphocytes,"cell growth, resazurin",,"72 h, together with: PHA stimulation",,GI50,> 10 µM
NC(C(=O)O)c1cc(O)cc(O)c1 (stereo not drawn),rat cerebellar granule cells,PI hydrolysis,,"24 h, culture-conditioned medium",reference: freshly prepared,EC50 and Emax,no effect
O=C1C(Cl)=C(N(C(=O)CCl)C(=O)CCl)C(=O)c2ccccc21,BALB/c 3T3 clone A31,"cytotoxicity, MTT",,48 h,,IC50,19.7 ± 3.71 µM
O=c1[nH]cnc2c1ncn2[C@H]1CC[C@@H](CO)O1,PHA-stimulated human PBM cells,"cell growth, trypan blue exclusion",,6 d,,IC50,> 100 µM
Telavancin,rat embryo fibroblasts,,,"72 h, 37 °C, 10% fetal calf serum, concentration range",,uptake clearance,9 ± 0.7 µL/mg protein/h
O=C(O)C1=CC(=C(c2ccc(O)c(C(=O)O)c2)c2ccc(O)c(C(=O)O)c2)C=CC1=O,HEK293 cells,cell viability,,72 h,,IC50,13.8 µM
B1 (UGT1A9),COc1cc(-c2oc3cc(O)ccc3c(=O)c2O)ccc1O,steady-state kinetics,,"pH 7.4, 37 °C",,Km,1.47 µM
C=C[C@]1(C)CC[C@H]2C(=C1C#N)c1c([nH]c3ccccc13)C2(C)C (relative stereo),NCI-H460,cytotoxicity,,,,IC50,> 40 µM
NC(=O)[C@H](CCCN=C(N)CCl)NC(=O)c1ccccc1,U-87 MG,JC-1 flow cytometry,,"150.40 µM, 48 h",,viable cells,45.3 ± 11.5%
CN(CC(=O)O)C(=O)CN,MDCKII-MDR1,,,"60 min, pH 7.4",,Papp A-B,11.7 ± 0.6 ×10⁻⁶ cm/s
NS(=O)(=O)c1ccc(Nc2nc3nccc(-c4ccccc4Cl)n3n2)cc1,human peripheral blood lymphocytes,"cell growth, resazurin",,"72 h, together with: PHA stimulation",,GI50,> 10 µM
C1CNCCNCCNCCN1,HT-22,"cell growth or viability, MTT",,,,IC50,73.6 µM
O=c1ccn([C@H]2C=C[C@@H](CO)O2)c(=O)[nH]1,PHA-stimulated human PBM cells,"cell growth, trypan blue exclusion",,6 d,,IC50,> 100 µM
COc1cccc(-c2ccnc3nc(Nc4ccc(S(N)(=O)=O)cc4)nn23)c1,human peripheral blood lymphocytes,"cell growth, resazurin",,"72 h, together with: PHA stimulation",,GI50,6 ± 0.8 µM
Cc1cn([C@H]2C=C[C@@H](CO)O2)c(=O)[nH]c1=O,PHA-stimulated human PBM cells,"cell growth, trypan blue exclusion",,6 d,,IC50,> 100 µM
c1csc(CNc2cc[nH]n2)c1,human peripheral blood lymphocytes,refers to: mitotic index,,"4 h, with and without S9",,cytotoxic concentration,2160 µg/mL
CN(C)c1ccc(O)c2c1C[C@H]1C[C@H]3[C@H](N(C)C)C(O)=C(C(N)=O)C(=O)[C@@]3(O)C(O)=C1C2=O,COS,"cytotoxicity, resazurin",,10% fetal calf serum,,TC50,> 100 µg/mL
O=C1OC2(c3ccc(O)cc3Oc3cc(O)ccc32)c2ccccc21,bovine brain microvessel endothelial cells,,BBMEC monolayer,"10 µM, up to 60 min, apical to basolateral",,Papp,34.2 ×10⁻⁶ cm/s
Cc1ncsc1-c1ccc(CNC(=O)[C@@H]2C[C@H](O)CN2C(=O)[C@H](C(C)C)N2Cc3ccccc3C2=O)c(OCCNC(=O)c2ccccc2NC(=O)[C@H](CCCCN)NC(=O)[C@@H]2CCCN2C(=O)Cc2cccc3ccccc23)c1,HCT-116 spheroids,,PG-S peptide hydrogel,"up to 64 µM, 3 days",,viability,> 92%
COc1cc(-c2oc3cc(C)c(C)cc3c(=O)c2O)ccc1O,H4IIE,MTT,,"concentration not given, 24 h",reference: with over without cyclosporin A,difference in toxicity,12.6%
CCC/C=C1\OC(=O)C2=C1CCC=C2,Hepa-1c1c7,"cytotoxicity, crystal violet",,48 h,,IC50,> 20 µM
NASC,PC-12,CellTiter-Glo,peptide,"1 mM, 72 h, 37 °C",reference: vehicle,viability,101 ± 1.44%

# Some of these lines once more:
Substance,tested on,assay,system,setting,how to read,quantity,result
C1CNCCNCCNCCN1,HT-22,"cell growth or viability, MTT",,,,IC50,73.6 µM
O=c1ccn([C@H]2C=C[C@@H](CO)O2)c(=O)[nH]1,PHA-stimulated human PBM cells,"cell growth, trypan blue exclusion",,6 d,,IC50,> 100 µM
COc1cccc(-c2ccnc3nc(Nc4ccc(S(N)(=O)=O)cc4)nn23)c1,human peripheral blood lymphocytes,"cell growth, resazurin",,"72 h, together with: PHA stimulation",,GI50,6 ± 0.8 µM
